Assay results collected from several papers.
Each line is one published result; not all experiments were run side by side.

| Structure (SMILES) | test | system | conditions | endpoint | value |
| --- | --- | --- | --- | --- | --- |
| CO[C@H]1C[C@@H]2CC[C@@H](C)[C@@](O)(O2)C(=O)C(=O)N2CCCC[C@H]2C(=O)O[C@H]([C@H](C)C[C@@H]2CC[C@@H](OC(=O)NCCOCCOCCOCCOCCOCCOCCOCCOCCC(=O)N3CCc4cc(Cn5nc(-c6ccc7oc(N)nc7c6)c6c(N)ncnc65)ccc4C3)[C@H](OC)C2)C[C@@H](O)[C@H](C)/C=C(\C)[C@@H](O)[C@@H](OC)C(=O)[C@H](C)C[C@H](C)/C=C/C=C/C=C/1C | refers to: treatment-related decreased appetite | patients with advanced solid tumours | intravenous, 1.6 mg/3 mg, grade ≥3, weekly | patients with AE | 0% |
| CN1CC[C@@H](c2c(O)cc(O)c3c(=O)cc(-c4ccc(C(F)(F)F)cc4Cl)oc23)[C@@H]1CO | refers to: rectal abscess | AML | oral, 100 mg, grade 3 to 4, intermittent dosing | patients with adverse event | 33.3% |
| O=C1Nc2cc3[nH]nc(-c4ccncc4)c3cc2CN1Cc1ccccc1 | CTCAE v4.03 | advanced solid tumour patients | intravenous, 1.8 mg/kg, schedules 1/2 | patients with ≥1 TEAE | 100% |
| N[C@@H]1c2ccccc2OC12CCN(c1cnc3c(N4CCCc5ncccc54)n[nH]c3n1)CC2 |  | advanced solid tumour patients | oral, 50 mg once daily | patients with grade ≥3 TEAE | 33.3% |
| C[C@@H]1OC(=O)NN=C1c1ccc(-c2ccc(F)cc2)c(C(F)(F)F)c1 |  | patients, phase I trial | oral, 5 mg once daily, any grade TEAE | patients with non-cardiac chest pain | 0% |
| C=CCNc1c(O)cc2c(O)c1C[C@@H](C)C[C@H](OC)[C@H](O)[C@@H](C)/C=C(\C)[C@H](OC(N)=O)[C@@H](OC)/C=C\C=C(/C)C(=O)N2 |  | unresectable or metastatic STS, GIST, other | intravenous, 225 mg/m^2 | patients with constipation TEAE | 33% |
| CC(=O)c1c(C)c2cnc(Nc3ccc(C4CCN(CCS(C)(=O)=O)CC4)cn3)nc2n(C2CCCC2)c1=O |  | HR+/HER2- advanced breast cancer patients | oral, dose not given, all grades, dose escalation, sample B patients | patients with AST increased | 26.3% |
| COc1c(OCCCN2CCOCC2)ccc2c1N=C(NC(=O)c1cnc(N)nc1)N1CCN=C21 | refers to: Fever | patients with advanced malignancies | intravenous, dose not given, any grade, all cohorts, together with: gemcitabine | patients with adverse event | 26% |
| Nc1nc2cc(-c3ccc4ncc(C(=O)N5CCOCC5)n4c3)ccc2o1 | refers to: Constipation, any cause, all grades | patients with advanced solid tumours | dose not given | patients with adverse events | 33% |
| Cc1cc(OCCOCCC(F)(F)P(=O)(O)O)ccc1CCc1cnc2c(N)nc3cc(CCC(=O)O)ccc3c2c1 | refers to: anemia | adults with advanced solid tumours | dose not given, by treatment group, all grades | patients with non-serious AE | 23.8% |
| CCN(CCO)CCCC(C)Nc1ccnc2cc(Cl)ccc12 (centres unmarked) | refers to: Hypomagnesemia grade 1 | newly diagnosed glioblastoma patients | oral, 400 mg/dose, with radiotherapy and temozolomide | patients with adverse event | 14% |

A few entries again:
| Structure (SMILES) | test | system | conditions | endpoint | value |
| --- | --- | --- | --- | --- | --- |
| CO[C@H]1C[C@@H]2CC[C@@H](C)[C@@](O)(O2)C(=O)C(=O)N2CCCC[C@H]2C(=O)O[C@H]([C@H](C)C[C@@H]2CC[C@@H](OC(=O)NCCOCCOCCOCCOCCOCCOCCOCCOCCC(=O)N3CCc4cc(Cn5nc(-c6ccc7oc(N)nc7c6)c6c(N)ncnc65)ccc4C3)[C@H](OC)C2)C[C@@H](O)[C@H](C)/C=C(\C)[C@@H](O)[C@@H](OC)C(=O)[C@H](C)C[C@H](C)/C=C/C=C/C=C/1C | refers to: treatment-related decreased appetite | patients with advanced solid tumours | intravenous, 1.6 mg/3 mg, grade ≥3, weekly | patients with AE | 0% |
